Published values of several laboratories.
A part holds a random share of what one study measured. Positions count from the first letter of the parent shown.

Series 1 — technique: protein-binding microarray; molecule type: double-stranded DNA, one strand shown; medium: in vitro; tested at: 940 nM top; notes: 60-bp whole probe; together with: salmon DNA 0.4 mg/ml; relative to: random background probes; reading: higher = stronger binding; all sequences stand within: GCCTAGCAC … GTCTTGATTCGCTTGACGCTGCTG
Target: Interferon regulatory factor 5, full length, phosphomimetic (IRF5, Homo sapiens, UniProt Q13568-2, residues 1-514, S451D/S453D/S456D/S462D)
Oligonucleotide | fitted relative affinity [z-score]
TTAGGTATCCTACTCCTTTAGTGCTAG | 0.0743
CTGGCTGGGGTGGTGGCAGTGTGCTAG | -0.592
TCATATTTACTCTCTACAACTGTGCTA | 1.85
TCACTTTTGCTAATTTTACTGTGCTAG | 0.835
TTAGGACTGCTACAGCTTTAGTGCTAG | -0.68
GACGGTCTCCTACTGCTGGCGTGCTAG | -0.158
GACGGACGGCTTTTCCTGACGTGCTAG | -0.715
TCAGCATTCGAATTCAGACTGTGCTAG | -0.375
GACGCTATCGGTATCGGGACGTGCTAG | 1.94
AACGAACTGGGGTATCGAGACGTGCTA | 1.2
GACGGACGGGACACTGGGGACGTGCTA | -0.42
TTAGATTTCTGTTCCGATTAGTGCTAG | 1.56
GTCGATATCGGGACTGGAGACGTGCTA | 0.0297
GACGGACTGGGTCTAGGGACGTGCTAG | -0.803
TTAGATCTCAGTCTCAATTAGTGCTAG | 1.09
TTAGGTCTCCTTTTCCATTAGTGCTAG | 0.654
TTAGCTCTCCTTTTCCTTTAGTGCTAG | 0.94
TTAGGTTTACTTATCCTTTAGTGCTAG | -0.216
TTAGATTTCGGGTTTCCATTAGTGCTA | 1.81

Series 2 — target: ATF2, bZIP domain (human); technique: DHFR protein complementation; medium: yeast; relative to: wild-type JUN-FOS pair; reading: higher = stronger binding
Notes: single substitutions, most at no-binding floor
Starting sequence: JUN, bZIP domain (human); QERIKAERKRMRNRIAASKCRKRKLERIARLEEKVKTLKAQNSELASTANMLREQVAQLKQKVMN; partner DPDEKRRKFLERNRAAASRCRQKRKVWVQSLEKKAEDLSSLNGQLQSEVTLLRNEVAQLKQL
Change | binding fitness [natural log]
A29Y | -1.37
N42I | -1.46
A49Q | -1.52
T48K | -1.29
R30P | -1.4
V35M | -1.32
V56A | -1.41
S47W | -1.27
T48V | -1.36
Q55E | -1.29
I28D | -1.31
R53K | -1.61
Q55A | -1.42
A49P | -1.5
R30A | -1.17

Series 3 — technique: aptamer microarray, sandwich; molecule type: DNA with 2'F-ANA; medium: in vitro; tested at: 200 nM; together with: Cy3 exosite-II aptamer, 400 nM; reading: higher = stronger binding; oligonucleotide: GGTTGGTGTGGTTGG
Target: Prothrombin, mature alpha-thrombin (F2, Homo sapiens, UniProt P00734)
Notes: whole 15-mer aptamer, many near background
Modification | mean fluorescence intensity
2'F-ANA at 1 4 5 6 9 13 14 15 | 49 a.u.
2'F-ANA at 1 2 4 7 10 12 13 | 111 a.u.
2'F-ANA at 2 3 4 5 6 8 9 10 12 13 | 52.8 a.u.
2'F-ANA at 2 7 8 12 13 14 15 | 231 a.u.
2'F-ANA at 1 2 3 6 7 8 9 12 | 453 a.u.
2'F-ANA at 2 3 4 5 9 10 14 15 | 48 a.u.
2'F-ANA at 2 3 4 5 6 7 9 14 | 69.9 a.u.
2'F-ANA at 1 5 7 11 12 13 14 15 | 47.7 a.u.
2'F-ANA at 2 3 7 11 12 13 15 | 933 a.u.
2'F-ANA at 4 7 9 10 14 | 62.8 a.u.
2'F-ANA at 4 5 7 10 11 12 13 | 49.1 a.u.
2'F-ANA at 1 5 8 9 12 13 14 | 45.6 a.u.
2'F-ANA at 2 6 11 13 15 | 251 a.u.
2'F-ANA at 1 5 11 12 | 84.5 a.u.
2'F-ANA at 1 2 3 4 6 7 8 9 10 11 12 13 15 | 132 a.u.
2'F-ANA at 1 4 5 7 8 9 12 14 15 | 57.5 a.u.
2'F-ANA at 1 4 6 7 8 11 13 14 | 63.2 a.u.
2'F-ANA at 1 6 7 8 10 12 14 | 53.8 a.u.
2'F-ANA at 1 2 4 5 7 10 12 14 | 45.1 a.u.
2'F-ANA at 1 2 4 5 9 10 11 13 14 15 | 49 a.u.
2'F-ANA at 1 2 3 5 12 13 14 | 47 a.u.
2'F-ANA at 1 4 7 10 11 12 14 | 46.3 a.u.
2'F-ANA at 2 6 7 11 12 14 | 199 a.u.

Series 4 — target: CCNB1, cyclin fold, Cln2 fusion (human); technique: yeast growth competition, sequencing; medium: yeast; notes: weak parent motif; relative to: not given; reading: higher = stronger binding
Starting sequence: GMNC docking peptide (human); KNAKRNLSSEFAN
Change | normalised enrichment score
E10N | -0.0618
A3S | 1.43
E10W | 0.0735
A3W | 0.677
E10Y | -0.463
N2H | 0.181
E10A | 0.0142
K4S | 0.212
S9N | -0.0832
F11C | 0.33
F11W | 0.449
N2C | 0.00476
R5V | -0.363
A3H | 0.7
S8P | -0.0321
N6H | -0.0413
N6L | -0.302
N2R | 0.633
F11N | -0.435
S9W | 0.336
N6V | -0.0466
E10S | 0.244
S8G | 0.466
R5E | 0.579
F11A | 0.313

Series 5 — technique: RNA Bind-n-Seq; molecule type: RNA; medium: in vitro; tested at: 365 nM; relative to: no-protein control; reading: higher = stronger binding
Target: RNA binding protein fox-1 homolog 2, RRM domain, GST-SBP tag (RBFOX2, Homo sapiens, UniProt O43251-10, residues 100-194)
Notes: natural RNA segment, single round, ends assumed
All sequences stand within: GGGAGUUCUACAGUCCGACGAUC … UGGAAUUCUCGGGUGCCAA
Residues (chain): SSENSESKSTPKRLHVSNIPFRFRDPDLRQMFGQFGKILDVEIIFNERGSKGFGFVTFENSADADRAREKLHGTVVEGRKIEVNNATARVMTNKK
Oligonucleotide | RBNS enrichment (R)
GCAGAGGGGCUGAAUAGCAGAAGGUUGCACCUCCCCCAACCUUAGAUGUUCUAAGUCUUUCCAUUGGAUCUCAUUGGACCCUUCCAUGGUGUGAUCGUCUGACUGGUGUU | 0.413
CACCUUACCUUGUCAUGCCACCCCAGGAGUAGAAGCUGGGUAAGGCCCCAUCAUCCUGACCAUCUCUGUUCAUAUGCCCAAGGUGCUAGAAUUAGCUUAGGAGAGAUGCA | 0.92
AGAGGGGCCUUAAGAAGGACAGUUCAUUGUAGGAAAGCAAUUCUGUACAUGAGUUAAGCAUACUUGUUGCAUUGUCUCUGCAGAUUCUAUUUUUGUUUACAAUAUUAAAA | 0.656
GCAGUUAUGUGCCCGCUCUGGUGAUGGCCCCAGCCAGUGAUGCUAGGCCUAAUUGUUCAUCAUCAAGCCGGCGACUCAUGUGGUGCCUGCCCUAGGCGUGGCCUGCGGUC | 1.21
CUGCAUGAGAACUAUGCACUAAUCUAUCUGAAGAAAAAAAAAAACUAUAUCAACUUUGGUAUCUACUUUCCGUUUACUUCAAUCCUUGCCUUUUUGGUCAUUGUUAUAAU | 1.52
UUAGGGAUGGGAUGAGUGGGAGGAAGCCCUUUGAGAAGGGGGAGCCGGCCCUGUCAUGCGCAGGUUUUCCACUCAUCUGAGGAAGAGCCAGGGCUCUGAAUUUAGCCUAA | 0.427
GUGUCUCGUUCUCCACGGUGCUGGAGACCUCAUUACUUUGGAAAACUCACUGUUCCCCAGCACAGCACAGCUGCAUGACCUCAGCUUCAGACUGAUGUCAGCCAGCCUUC | 0.261
UUAUAAAUCUUUCAAAUUAGUUCCUUUUUAGAAUUUACCAACAGGUUCAAAGCAUACUUUUCAUGAUUUUUUUAUUACAAAUGUAAAAUGUAUAAAGUCACAUGUACUGC | 0.777
GUGGGACCCAGGCGUGGGGGGACCUUUCUGCCCCACAUUCCUGGCAUUCCCCCCAAGUUUAUUUCUACUUUCCAGAAACAAGCCACGGGAAGGGAAGGAACCUGCAGCAG | 0.22
GCAUUUUACUUAAAUUUUACUGUUUGCAAGUAGUCUAUAGAAAUUUUGUUUUAAGUCUUCAAAUAUCUUGAGAAAUAGUAGACUGUAUGUUGAAAAUUGUACUGAAAUAA | 0.503
GUUCUCAUGCUGCUAUUAAAGACAUACCUGACACUGGGUAAUUUAUAAAGGAAAGAGGUUUAAUGGACUCAGUUCCACAUGGCUGGGGACGCCUCACAAUCAUGGUGGAA | 0.384
UCACGUGACAUCCCAUUCACUCAUCUACACUAGCCCAGUGCUCCCAUUGUCCCCUGCCUCCUCUGUAAUUUUUGCCCCUUCCAGGGUACGGAAUGUGUCAGUGCAUUUUC | 0.763
